Values quoted from earlier work, collected from citations in different studies.
Compare with care: the assays were run in different laboratories. ± gives the spread as reported.
UniProt Q8WU08, sequence (whole entry, looked up): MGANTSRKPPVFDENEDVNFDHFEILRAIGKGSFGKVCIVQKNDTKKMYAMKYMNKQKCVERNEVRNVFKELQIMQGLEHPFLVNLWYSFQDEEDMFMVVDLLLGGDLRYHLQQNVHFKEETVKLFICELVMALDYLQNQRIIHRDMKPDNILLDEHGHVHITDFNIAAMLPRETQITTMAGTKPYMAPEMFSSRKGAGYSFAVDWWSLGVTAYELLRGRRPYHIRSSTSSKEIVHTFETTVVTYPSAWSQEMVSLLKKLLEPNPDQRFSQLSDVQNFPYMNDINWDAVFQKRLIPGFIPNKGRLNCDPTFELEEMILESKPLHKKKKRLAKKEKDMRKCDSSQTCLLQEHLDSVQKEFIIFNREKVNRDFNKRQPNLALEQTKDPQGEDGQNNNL

O=C(NC[C@H]1CN(c2ccc(N3CCOCC3=O)cc2)C(=O)O1)c1ccc(Cl)s1  half-life (in vivo): 7 to 11 h
CN(C)C/C=C/C(=O)Nc1cc2c(Nc3ccc(F)c(Cl)c3)ncnc2cc1O[C@H]1CCOC1  half-life (in vitro, together with: glutathione): ~0.5 h
CNC[C@H](O)[C@@H](O)[C@H](O)[C@H](O)CO.CNC[C@H](O)[C@@H](O)[C@H](O)[C@H](O)CO.O=C([O-])CN(CCN(CC(=O)[O-])CC(=O)O)CCN(CC(=O)O)C(COCc1ccccc1)C(=O)[O-].[Gd+3] (stereo not drawn)  half-life (0.1 mmol/kg): 2.06 ± 0.91 h
CCCCCCCCCCCCCCCC(=O)NCCO  half-life (rat liver homogenate): ~0.417 h
COc1cccc2c1OCC(C(=O)Nc1ccc3c(c1)CN(C1CCC(=O)NC1=O)C3=O)=C2 (stereo not drawn)  half-life: 8 h
CNC[C@H](O)[C@@H](O)[C@H](O)[C@H](O)CO.CNC[C@H](O)[C@@H](O)[C@H](O)[C@H](O)CO.O=C([O-])CN(CCN(CC(=O)[O-])CC(=O)O)CCN(CC(=O)[O-])CC(=O)O.[Gd+3]  half-life (0.1 mmol/kg): 1.51 ± 0.28 h
O=C(N/N=C/c1ccccc1O)c1ccncc1  half-life (rabbit; intravenous, dose not given): 0.3 h
CNC[C@H](O)[C@@H](O)[C@H](O)[C@H](O)CO.O=C([O-])CN1CCN(CC(=O)[O-])CCN(CC(=O)O)CCN(CC(=O)[O-])CC1.[Gd+3]  half-life (0.1 mmol/kg): 2.04 ± 0.72 h
Nc1cc(C(F)(F)F)c(-c2nc(N3CCOCC3)nc(N3CCOCC3)n2)cn1  remaining activity (STK32A (Homo sapiens, UniProt Q8WU08); enzyme activity; 10 µM; relative to: untreated): 100%
CNC(C)C1CCC(N)C(OC2C(N)CC(N)C(OC3OCC(C)(O)C(NC)C3O)C2O)O1 (stereo not drawn)  MIC (Acinetobacter baumannii; clinical isolate RKI-No_231/15): > 8 mg/L
CC[C@H](C)CCCCC(=O)N[C@@H](CCN)C(=O)N[C@H](C(=O)N[C@@H](CCN)C(=O)N[C@H]1CCNC(=O)[C@H]([C@@H](C)O)NC(=O)[C@H](CCN)NC(=O)[C@H](CCN)NC(=O)[C@H](CC(C)C)NC(=O)[C@@H](Cc2ccccc2)NC(=O)[C@H](CCN)NC1=O)[C@@H](C)O  half-life (healthy Chinese subjects; 0.75 mg/kg single dose): 5.44 ± 0.741 h
CC1(C)S[C@@H]2[C@H](NC(=O)[C@H](N)c3ccccc3)C(=O)N2[C@H]1C(=O)O  MIC (Acinetobacter baumannii; clinical isolate RKI-No_231/15): > 16 mg/L
CC#CCn1c(N2CCC[C@@H](N)C2)nc2c1c(=O)n(Cc1nc(C)c3ccccc3n1)c(=O)n2C  half-life: 110 to 130 h
CN1CC[C@@H](c2c(O)cc(O)c3c(=O)cc(-c4ccc(C(F)(F)F)cc4Cl)oc23)[C@@H]1CO  half-life (patients with solid tumours): 28 h
CC[C@H](C)[C@H](NC(=O)[C@H](CO)NC(=O)[C@H](Cc1ccc(O)cc1)NC(=O)[C@H](CC(=O)O)NC(=O)[C@H](CO)NC(=O)[C@@H](NC(=O)[C@H](Cc1ccccc1)NC(=O)[C@@H](NC(=O)CNC(=O)[C@H](CCC(=O)O)NC(=O)[C@H](C)NC(=O)[C@@H](N)Cc1ccc(O)cc1)[C@@H](C)O)[C@@H](C)CC)C(=O)N[C@@H](C)C(=O)N[C@@H](CCSC)C(=O)N[C@@H](CC(=O)O)C(=O)N[C@@H](CCCCN)C(=O)N[C@H](C(=O)N[C@@H](Cc1c[nH]cn1)C(=O)N[C@@H](CCC(N)=O)C(=O)N[C@@H](CCC(N)=O)C(=O)N[C@@H](CC(=O)O)C(=O)N[C@@H](Cc1ccccc1)C(=O)N[C@H](C(=O)N[C@@H](CC(N)=O)C(=O)N[C@@H](Cc1c[nH]c2ccccc12)C(=O)N[C@@H](CC(C)C)C(=O)N[C@@H](CC(C)C)C(=O)N[C@@H](C)C(=O)N[C@@H](CCC(N)=O)C(=O)N[C@@H](CCCCN)C(=O)NCC(=O)N[C@@H](CCCCN)C(=O)N[C@@H](CCCCN)C(=O)N[C@@H](CC(N)=O)C(=O)N[C@@H](CC(=O)O)C(=O)N[C@@H](Cc1c[nH]c2ccccc12)C(=O)N[C@@H](CCCCN)C(=O)N[C@@H](Cc1c[nH]cn1)C(=O)N[C@@H](CC(N)=O)C(=O)N[C@H](C(=O)N[C@H](C(=O)N[C@@H](CCC(N)=O)C(=O)O)[C@@H](C)O)[C@@H](C)CC)C(C)C)[C@@H](C)CC  half-life (in vivo; degradation by DPP4): 0.0833 to 0.117 h

Excerpt of the above:
CN1CC[C@@H](c2c(O)cc(O)c3c(=O)cc(-c4ccc(C(F)(F)F)cc4Cl)oc23)[C@@H]1CO  half-life (patients with solid tumours): 28 h
CC[C@H](C)[C@H](NC(=O)[C@H](CO)NC(=O)[C@H](Cc1ccc(O)cc1)NC(=O)[C@H](CC(=O)O)NC(=O)[C@H](CO)NC(=O)[C@@H](NC(=O)[C@H](Cc1ccccc1)NC(=O)[C@@H](NC(=O)CNC(=O)[C@H](CCC(=O)O)NC(=O)[C@H](C)NC(=O)[C@@H](N)Cc1ccc(O)cc1)[C@@H](C)O)[C@@H](C)CC)C(=O)N[C@@H](C)C(=O)N[C@@H](CCSC)C(=O)N[C@@H](CC(=O)O)C(=O)N[C@@H](CCCCN)C(=O)N[C@H](C(=O)N[C@@H](Cc1c[nH]cn1)C(=O)N[C@@H](CCC(N)=O)C(=O)N[C@@H](CCC(N)=O)C(=O)N[C@@H](CC(=O)O)C(=O)N[C@@H](Cc1ccccc1)C(=O)N[C@H](C(=O)N[C@@H](CC(N)=O)C(=O)N[C@@H](Cc1c[nH]c2ccccc12)C(=O)N[C@@H](CC(C)C)C(=O)N[C@@H](CC(C)C)C(=O)N[C@@H](C)C(=O)N[C@@H](CCC(N)=O)C(=O)N[C@@H](CCCCN)C(=O)NCC(=O)N[C@@H](CCCCN)C(=O)N[C@@H](CCCCN)C(=O)N[C@@H](CC(N)=O)C(=O)N[C@@H](CC(=O)O)C(=O)N[C@@H](Cc1c[nH]c2ccccc12)C(=O)N[C@@H](CCCCN)C(=O)N[C@@H](Cc1c[nH]cn1)C(=O)N[C@@H](CC(N)=O)C(=O)N[C@H](C(=O)N[C@H](C(=O)N[C@@H](CCC(N)=O)C(=O)O)[C@@H](C)O)[C@@H](C)CC)C(C)C)[C@@H](C)CC  half-life (in vivo; degradation by DPP4): 0.0833 to 0.117 h
